Values quoted from earlier work, collected from citations in different studies.
Protocols differ between the studies behind these lines.
Organism: Mycobacterium tuberculosis

C#CCN(Cc1ccc2nc(N)nc(N)c2c1)c1ccc(C(=O)N[C@@H](CCC(=O)O)C(=O)O)cc1
MIC (H37Rv): ~5 µM

CC(=O)N(CCCP(=O)(O)O)OCc1cccc2ccccc12
MIC: 25 to 200 µg/mL

Cc1ccc2nc(C)c(C(=O)NCc3ccc(S(C)(=O)=O)cc3)n2c1
MIC (alamar blue fluorescence; H37Rv): 0.4 µM

O=C(NC1CCCCCC1)c1ccc2ccccc2n1
MIC (H37Rv): 111 µM

O=C(O)c1c(=O)c2cc([N+](=O)[O-])c(N3CCC4(CC3)OCCO4)nc2n2c1sc1ccccc12
MIC (H37Rv): 0.19 µM

O=C(N1CCN(c2nc(=O)c3cc(C(F)(F)F)cc([N+](=O)[O-])c3s2)CC1)C12CC3CC(CC(C3)C1)C2
MIC (H37Rv): 0.031 µM

O=C(NCc1cn(Cc2ccc([N+](=O)[O-])cc2)nn1)c1cccnc1
MIC (bacterial growth): 1.56 µg/mL

O=C(Nc1ccc(Cl)cn1)c1cccc(C(F)(F)F)c1
MIC: 31.2 µg/mL

O=C1c2c(F)c(F)c(F)c(F)c2C(=O)N1c1ccc(S(=O)(=O)Nc2ccccc2)cc1
MIC (H37Ra): 32 µg/mL

Cc1nc2sc3ccccc3n2c1C(=O)NNC(=O)c1ccc(Oc2ccccc2)cc1
MIC: 3.53 µM

C1CN(C2C3CC4CC(C3)CC2C4)CCN(C2C3CC4CC(C3)CC2C4)C1 (stereo not drawn)
MIC (concentration not given): 1.56 µM

O=C(Cn1cc(CN2C(=O)c3ccccc3C2=O)nn1)Nc1ccc(Br)cc1
MIC: 12.5 µg/mL

A few entries again:
C1CN(C2C3CC4CC(C3)CC2C4)CCN(C2C3CC4CC(C3)CC2C4)C1 (stereo not drawn)
MIC (concentration not given): 1.56 µM
